Values quoted from earlier work as cited in several papers.
± marks the error that the study gave.
Target: Sodium-dependent serotonin transporter (Slc6a4, Rattus norvegicus, UniProt P31652)
Sequence of UniProt P31652 (whole entry, looked up): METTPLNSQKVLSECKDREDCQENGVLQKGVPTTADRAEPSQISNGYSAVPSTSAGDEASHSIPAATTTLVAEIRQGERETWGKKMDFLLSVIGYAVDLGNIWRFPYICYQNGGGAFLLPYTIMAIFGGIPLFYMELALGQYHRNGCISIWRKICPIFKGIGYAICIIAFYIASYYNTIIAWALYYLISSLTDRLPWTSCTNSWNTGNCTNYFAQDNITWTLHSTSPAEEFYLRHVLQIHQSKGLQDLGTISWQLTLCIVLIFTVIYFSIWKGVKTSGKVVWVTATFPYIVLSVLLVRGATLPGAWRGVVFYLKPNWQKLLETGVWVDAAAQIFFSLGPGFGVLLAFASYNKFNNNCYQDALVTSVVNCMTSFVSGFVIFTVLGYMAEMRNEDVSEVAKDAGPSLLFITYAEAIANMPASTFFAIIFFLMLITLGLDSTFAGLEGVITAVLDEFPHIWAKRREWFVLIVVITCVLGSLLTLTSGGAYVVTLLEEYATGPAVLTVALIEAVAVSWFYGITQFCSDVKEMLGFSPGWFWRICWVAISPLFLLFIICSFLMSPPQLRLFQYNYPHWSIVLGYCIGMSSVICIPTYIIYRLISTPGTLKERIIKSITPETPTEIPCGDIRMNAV

COc1ccc2[nH]cc(CCN(C(C)C)C(C)C)c2c1
IC50: 1800 nM

Cc1ccc(C(=O)C(C)NC2CC2)cc1Cl (centres unmarked)
EC50 (serotonin release, releaser; rat brain synaptosomes): 181 ± 31 nM

CNC(C)C(=O)c1ccc(C)cc1 (centres unmarked)
EC50 (substrate release, releaser; rat brain synaptosomes): 118 nM

CCCC(C(=O)c1ccc2c(c1)OCO2)N1CCCC1 (centres unmarked)
IC50 (uptake; rat brain synaptosomes): 3350 ± 305 nM

COc1ccc2[nH]cc(CCN(C)C(C)C)c2c1
IC50: 6400 nM

CNC(C)C(=O)c1ccc(C)cc1 (centres unmarked)
IC50: 422 ± 26 nM

CC(NC1CC1)C(=O)c1ccc(Cl)c(Cl)c1 (centres unmarked)
EC50 (serotonin release, releaser; rat brain synaptosomes): 356 ± 96 nM

CNC(C)C(=O)c1ccccc1 (centres unmarked)
EC50 (substrate release, releaser; rat brain synaptosomes): 3860 nM

Excerpt of the above:
CNC(C)C(=O)c1ccccc1 (centres unmarked)
EC50 (substrate release, releaser; rat brain synaptosomes): 3860 nM
